Experimental data gathered from unrelated publications.
Lines come from different studies, so protocols differ.
Route: oral

| SMILES | test | system | setting | measurement | result |
| --- | --- | --- | --- | --- | --- |
| CCn1c(=O)c(-c2cc(NC(=O)Nc3ccccc3)c(F)cc2Br)cc2cnc(NC)cc21 | measured: nervous system disorders | healthy human, matched to moderate hepatic impairment | 50 mg single dose | participants with drug-related TEAE | 0% |
| O=C(COc1ccc(Cl)cc1)NC12CC(c3nnc([C@H]4C[C@@H](OC(F)(F)F)C4)o3)(C1)C2 |  | human both sexes | 200 mg once daily, 14 days | participants with TEAE | 71.4% |
| Cc1cc(C)c(CNC(=O)c2cc(Cl)c3c(c2C)O[C@@](C)([C@H]2CC[C@H](N(C)C)CC2)O3)c(=O)[nH]1 |  | healthy human male | 200 mg single dose, grade 1 | participants with TEAEs | 50% |
| CCCS(=O)(=O)N[C@H]1C[C@@H](N(C)c2ncnc3[nH]ccc23)C1 |  | healthy human | dose not given, added: rosuvastatin | participants with TEAEs | 25% |
| CN1C(=O)[C@@H](NC(=O)c2nnc(Cc3ccccc3)[nH]2)COc2cccnc21 | phase I multiple ascending dose | human, male and female | 200 mg, 14 days | participants with any TEAE | 25% |
| O=C1CC[C@H](N2Cc3cc(N4CCN(CC5CCN(c6ccc([C@@H]7c8ccc(O)cc8CC[C@@H]7c7ccccc7)cc6)CC5)CC4)ccc3C2=O)C(=O)N1 |  | human | 200 mg, added: dabigatran etexilate 75 mg | participants with TEAE hot flush | 0% |
| C=CC(=O)NC1CCN(c2ncc3ncnc(Nc4ccc(Oc5ccc6c(c5)ncn6C)c(C)c4)c3n2)CC1 |  | healthy male humans | dose not given | participants with adverse events | 61.5% |
| CC(C)c1nc(CN(C)C(=O)N[C@@H](CCN2CCOCC2)C(=O)N[C@H](CC[C@H](Cc2ccccc2)NC(=O)OCc2cncs2)Cc2ccccc2)cs1 |  | human | dose not given | participants with Dizziness | 0% |
| C[C@H]1O[C@@H](O[C@H]2[C@@H](O)C[C@H](O[C@H]3[C@@H](O)C[C@H](O[C@H]4CC[C@@]5(C)[C@H](CC[C@@H]6[C@@H]5C[C@@H](O)[C@]5(C)[C@@H](C7=CC(=O)OC7)CC[C@]65O)C4)O[C@@H]3C)O[C@@H]2C)C[C@H](O)[C@@H]1O |  | human | 0.25 mg | participants with drug-related TEAE | 6.9% |
| COC(=O)N[C@H](C(=O)N1CCC[C@H]1c1ncc(-c2cc(F)c3c(c2)O[C@@H](c2cnc(C4CC4)s2)n2c-3cc3cc(-c4cnc([C@@H]5CCCN5C(=O)[C@@H](NC(=O)OC)C(C)C)[nH]4)ccc32)[nH]1)C(C)C |  | healthy adult humans | 180 mg, 6 days | participants with Headache | 6.3% |
| CC(C)c1nc(N(C)S(C)(=O)=O)nc(-c2ccc(F)cc2)c1/C=C/[C@@H](O)C[C@@H](O)CC(=O)O |  | human | 10 mg, alone | participants with TEAEs | 8.3% |
| CC(C)c1nc(N(C)S(C)(=O)=O)nc(-c2ccc(F)cc2)c1/C=C/[C@@H](O)C[C@@H](O)CC(=O)O |  | human | 10 mg | participants with drug-related TEAE | 0% |
| COC(=O)N[C@@H](C)CNc1nccc(-c2cn(C(C)C)nc2-c2cc(Cl)cc(NS(C)(=O)=O)c2F)n1 |  | human | dose not given, alone or with diltiazem or posaconazole | participants with drug-related TEAEs | 84% |
| CCCCCCOC(=O)NC(=N)c1ccc(NCc2nc3cc(C(=O)N(CCC(=O)OCC)c4ccccn4)ccc3n2C)cc1 | measured: Contusion | human | 75 mg, alone | participants with adverse event | 0% |
| C=CC(=O)NC1CCN(c2ncc3ncnc(Nc4ccc(Oc5ccc6c(c5)ncn6C)c(C)c4)c3n2)CC1 |  | human, male | 240 mg, treatment-emergent adverse event | participants with pain | 6.3% |

Some of these lines once more:
| SMILES | test | system | setting | measurement | result |
| --- | --- | --- | --- | --- | --- |
| CN1C(=O)[C@@H](NC(=O)c2nnc(Cc3ccccc3)[nH]2)COc2cccnc21 | phase I multiple ascending dose | human, male and female | 200 mg, 14 days | participants with any TEAE | 25% |
| COC(=O)N[C@H](C(=O)N1CCC[C@H]1c1ncc(-c2cc(F)c3c(c2)O[C@@H](c2cnc(C4CC4)s2)n2c-3cc3cc(-c4cnc([C@@H]5CCCN5C(=O)[C@@H](NC(=O)OC)C(C)C)[nH]4)ccc32)[nH]1)C(C)C |  | healthy adult humans | 180 mg, 6 days | participants with Headache | 6.3% |
